# Experimental data pooled from the literature.
# Compare with care: the assays were run in different laboratories. Values joined by “and” are separate records of one study, mostly repeats; a detail may differ. ± marks the error that the study gave.
# rep main protease: Replicase polyprotein 1ab, main protease (rep, Severe acute respiratory syndrome coronavirus 2, UniProt P0DTD1)
# rep nsp3 macrodomain: Replicase polyprotein 1ab, nsp3 macrodomain (rep, Severe acute respiratory syndrome coronavirus 2, UniProt P0DTD1)
# rep papain-like protease: Replicase polyprotein 1ab, papain-like protease (rep, Severe acute respiratory syndrome coronavirus 2, UniProt P0DTD1)
# rep nsp14 methyltransferase: Replicase polyprotein 1ab, nsp14 methyltransferase (rep, Severe acute respiratory syndrome coronavirus 2, UniProt P0DTD1)
SMILES,target,assay,system,conditions,how to read,endpoint,result
COC(=O)C(=O)/C(=C\c1ccc(-c2ccccc2[N+](=O)[O-])o1)C(=O)c1ccccc1,rep main protease,"enzyme activity, inhibitor",,10 µM,,Vmax,14.2 ± 2.3 RFU/s
COc1cc(OC)cc(C(=O)N(CCC(=O)N2CCNCC2)Cc2cccc(Cl)c2)c1,rep nsp3 macrodomain,"ADP-ribosylhydrolase activity, ADPr-Glo",SARS-CoV-2,,,maximum inhibition,~60%
CC(=O)N[C@@H](Cc1ccc(O)cc1)C(=O)N[C@@H](CCCNC(=N)N)C(=O)N[C@@H](Cc1ccccc1)C(=O)N[C@H]1CCC[C@@H]1C(=O)N[C@@H](CCCNC(=N)N)C(=O)N[C@@H](CC(N)=O)C(=O)N[C@H]1CCC[C@@H]1C(=O)N[C@H](C(=O)N[C@@H](Cc1ccccc1)C(=O)N[C@H]1CCC[C@@H]1C(=O)N[C@@H](Cc1ccccc1)C(=O)N[C@@H](Cc1ccc(O)cc1)C(=O)N[C@H]1CCC[C@@H]1C(=O)N[C@H](C(=O)N[C@@H](CC(=O)O)C(N)=O)[C@@H](C)O)C(C)C,rep main protease,"binding, SPR",,,,koff,0.0121 s⁻¹
CNC(=O)C[C@H](Cc1ccncc1)NC(=O)[C@@H](Cc1cccc(Br)c1)NC(=O)[C@@H](N)Cc1ccsc1,rep main protease,3CL protease activity,,1 µM,,remaining activity,28.7%
Cc1ccc(OCCN(C)C)cc1C(=O)N[C@H](C)c1cc(-c2cccnc2N2CCCC2)nc2ccccc12,rep papain-like protease,"reporter gene, cell-based",,,,GFP/mCherry signal ratio,0 and 90.5 and 73.4 and 25.9 and 69.1
N#Cc1ccccc1-c1cc(-c2cccc(Cl)c2)c(=O)n(-c2cccnc2)c1,rep main protease,"inhibitor, FRET",,concentration not given,relative to: perampanel,fold improvement in inhibition,> 10 fold
O=C(CSc1[nH]c2ccccc2c1SCC(=O)Nc1ccc(Cl)c(Cl)c1)Nc1ccc(Cl)c(Cl)c1,"Replicase polyprotein 1ab, nsp12 with nsp14/nsp10 (rep, Severe acute respiratory syndrome coronavirus 2, UniProt P0DTD1)","SARS-CoV-2 RdRp activity, CoV-Gluc reporter",HEK293T,,relative to: with nsp14/nsp10 over nsp12 alone,EC50 ratio,1.18
O=C(O)CC[C@H](NC(=O)c1ccccc1[Se][Se]c1ccccc1C(=O)N[C@@H](CCC(=O)O)C(=O)O)C(=O)O,rep main protease,"enzyme activity, inhibitor",,"40 µM, mean of repeats",,inhibition,23.2%
O=c1c2cccc([N+](=O)[O-])c2[se]n1-c1ccccc1,rep main protease,FRET,SARS-CoV-2,main protease,,Hill coefficient,2.2 ± 0.1
CCn1ccc(-c2cc(C(C)NC(=O)c3cc(N4CC5CC4CN5C)ccc3C)c3ccccc3n2)n1 (centres unmarked),rep papain-like protease,"reporter gene, cell-based",,,,GFP/mCherry signal ratio,80.8 and 86.5 and 96.3 and 4.68 and 41.8 and 70
CNC(=O)CC[C@H](Cc1ccccc1)NC(=O)[C@@H](Cc1ccc(Cl)cc1Cl)NC(=O)[C@H](N)Cc1ccccc1[N+](=O)[O-],rep main protease,3CL protease activity,,1 µM,,remaining activity,66.6%
CC(=O)Nc1ccc(-c2cnc(N3C(=O)C(Cl)C3c3cc4ccccc4nc3Cl)s2)cc1 (centres unmarked),rep main protease,thermal stability,,100 µM,,ΔTm,-3 °C
C[C@](C(=O)NC1CCOCC1)(c1cncnc1)N(C(=O)[C@H](F)Cl)c1ccc(OC(F)(F)Cl)cc1,rep main protease,"enzyme activity, inhibitor",,41 nM,,inhibition,89.3%
CC1CC(c2ccc(-c3nnn[nH]3)cc2)=NN1c1ccc(C#N)c(Cl)c1 (centres unmarked),rep nsp14 methyltransferase,,,,,lipophilic ligand efficiency,1.4
Cc1cc(C(=O)COn2nnc3ccc(S(C)(=O)=O)cc32)c(C)n1C,rep main protease,"protease activity, SAMDI-MS",,,,Hill slope,1.91
CNC(=O)CC1CN(C(=O)c2ccc(C(F)(F)F)cn2)CCN1C(=O)c1cccnn1 (centres unmarked),rep main protease,3CL protease activity,,0.04576 µM,,remaining activity,98.4%
O=C1c2ccccc2C(=O)c2oc(-c3ccccc3)nc21,rep papain-like protease,"binding, differential scanning fluorimetry",,,higher = stronger stabilisation,ΔTm,-8.72 °C
CCOc1ccc(CN2CC[C@H]2C(=O)NC)cc1-c1cccc(C(=O)NC[C@@H]2COC(C)(C)O2)c1,rep main protease,,,0.0001693 µM,,remaining activity,89.6%
O=C(c1ccc(Br)cc1)N1CCC(c2ccn3ncc(C(=O)N4CCCCC4)c3c2)CC1,rep nsp3 macrodomain,"enzyme activity, inhibitor, ADPr-Glo",,"concentration not given, SARS-CoV-2",,ADP-ribosylhydrolase inhibition,inhibited
COc1cc2c(cc1OC)-c1c(OC)c(OC)cc3c1[C@H](C2)N(C)CC3,rep main protease,"STD NMR, measured: proton H-16",,,relative to: H-8 signal,relative STD saturation,47.2%
C=CC(=O)N(c1ccc(C(C)(C)C)cc1)C(C(=O)NCCc1cccc(F)c1)c1cccnc1 (centres unmarked),rep main protease,"enzyme activity, inhibitor",,,,kinact/KI,81.2 M⁻¹ s⁻¹
N[C@H](C[Se][Se]C[C@@H](N)C(=O)O)C(=O)O,rep main protease,"enzyme activity, inhibitor",,40 µM,,inhibition,54.6% and 54.4%
CC(=O)NS(=O)(=O)c1ccc(C2=NN(c3ccc(C#N)c(Cl)c3)C(C)C2)cc1 (centres unmarked),rep nsp14 methyltransferase,,,,,lipophilic ligand efficiency,2.4
C=C1CCC2[C@](C)(CO)[C@H](O)CC[C@@]2(C)[C@@H]1/C=C/C1=CCOC1=O (some centres unmarked),rep main protease,"enzyme activity, inhibitor",,20 µM,,remaining activity,> 99%
CCN1C(=O)CCC1c1c(O)cc(O)c2c1O[C@H](c1cc(O)c(O)c(O)c1)[C@H](OC(=O)c1cc(O)c(O)c(O)c1)C2 (some centres unmarked),rep main protease,surface plasmon resonance,,,,Rmax,110 RU
CN=c1nc(-c2ccccc2)n(-c2ccccc2)s1,"Replicase polyprotein 1ab, nsp14 N7-methyltransferase (rep, Severe acute respiratory syndrome coronavirus 2, UniProt P0DTD1)","N7-methyltransferase activity, inhibitor, Py-FLINT",,,,Hill slope,1.97 ± 0.39
CNC(=O)C[C@H](Cc1ccncc1)NC(=O)[C@@H](Cc1cccc(Br)c1)NC(=O)[C@@H](N)Cc1cccc(F)c1,rep main protease,3CL protease activity,,0.04576 µM,,remaining activity,85.2%
NC(=O)CCC1CCCN(C(=O)c2c[nH]n3c2nc(=O)c2ccccc23)C1 (centres unmarked),rep main protease,"protease activity, SAMDI-MS",,,,Hill slope,1.31
Cc1ccc(OCCN(C)C)cc1C(=O)N[C@H](C)c1cc(-c2cnn(C3CNC3)c2)nc2ccccc12,rep papain-like protease,"reporter gene, cell-based",,,,GFP/mCherry signal ratio,104 and 102 and 88.7 and 113 and 93.4 and 110
[2H]C1([2H])CC[C@@H](C[C@@H](C#N)NC(=O)[C@@H]2[C@@H]3[C@H](CN2C(=O)[C@@H](NC(=O)C(F)F)C(C)(C)C)C3(C)C)C(=O)N1,rep main protease,"enzyme activity, inhibitor",,concentration not given,,reactivation half-life,~123 h
O=C(NCCc1cccc(F)c1)[C@H](c1cncnc1)N(C(=O)[C@H](F)Cl)c1ccc(S(F)(F)(F)(F)F)cc1,rep main protease,"enzyme activity, inhibitor",,,,kinact,0.0043 s⁻¹
O=C(CCl)N1N=C(c2cccs2)CC1c1cccs1 (centres unmarked),rep main protease,"inhibitor, biochemical",,,,kinact/Ki,777 M⁻¹ s⁻¹
CC[C@@H](C)[C@H](NC(=O)c1ccccc1[Se][Se]c1ccccc1C(=O)N[C@H](C(=O)OC)[C@H](C)CC)C(=O)OC,rep main protease,"enzyme activity, inhibitor",,"40 µM, mean of repeats",,inhibition,102%
O=C(CCc1ccccc1)NOC(=O)OCc1ccccc1,rep main protease,"enzyme inactivation, inhibitor",,1 to 30 µM,,kinact,0.0075 ± 0.0005 s⁻¹
NS(=O)(=O)c1cccc2c1C(=O)c1cccc(O)c1C2=O,rep main protease,3CL protease activity,,,,maximum inhibition,83%
CC(c1ccccc1Cl)N(C)Cc1cc(O)ccc1Cl (centres unmarked),rep papain-like protease,"thermal stability, DSF",,,,ΔTm,2.98 °C
O=C(Oc1cncc(Cl)c1)c1cccs1,rep main protease,"enzyme activity, inhibitor",,,,Hill slope,0.87 ± 0.02
C[C@](C(=O)NC1CCC(F)(F)CC1)(c1cncnc1)N(C(=O)[C@H](F)Cl)c1ccc(OC(F)(F)F)cc1,rep main protease,enzyme activity,,25 µM,,inhibition,99.7% and 98.2%

# Excerpt of the above:
SMILES,target,assay,system,conditions,how to read,endpoint,result
N#Cc1ccccc1-c1cc(-c2cccc(Cl)c2)c(=O)n(-c2cccnc2)c1,rep main protease,"inhibitor, FRET",,concentration not given,relative to: perampanel,fold improvement in inhibition,> 10 fold
O=C(NCCc1cccc(F)c1)[C@H](c1cncnc1)N(C(=O)[C@H](F)Cl)c1ccc(S(F)(F)(F)(F)F)cc1,rep main protease,"enzyme activity, inhibitor",,,,kinact,0.0043 s⁻¹
CCN1C(=O)CCC1c1c(O)cc(O)c2c1O[C@H](c1cc(O)c(O)c(O)c1)[C@H](OC(=O)c1cc(O)c(O)c(O)c1)C2 (some centres unmarked),rep main protease,surface plasmon resonance,,,,Rmax,110 RU
